Assay results gathered from unrelated publications.
Parts stem from different laboratories: compare values within a part only.

Sample 1 — technique: RNA Bind-n-Seq; form: RNA; matrix: in vitro; concentration: 1 µM; setting: whole 134-nt RNA, ends assumed; added: 150 mM KCl; baseline: input library; reading: higher = stronger binding; endpoint: log2 enrichment
Target: Ras GTPase-activating protein-binding protein 1, C-terminal RGG region (G3BP1, Homo sapiens, UniProt Q13283)
Chain of UniProt Q13283 (whole entry, looked up): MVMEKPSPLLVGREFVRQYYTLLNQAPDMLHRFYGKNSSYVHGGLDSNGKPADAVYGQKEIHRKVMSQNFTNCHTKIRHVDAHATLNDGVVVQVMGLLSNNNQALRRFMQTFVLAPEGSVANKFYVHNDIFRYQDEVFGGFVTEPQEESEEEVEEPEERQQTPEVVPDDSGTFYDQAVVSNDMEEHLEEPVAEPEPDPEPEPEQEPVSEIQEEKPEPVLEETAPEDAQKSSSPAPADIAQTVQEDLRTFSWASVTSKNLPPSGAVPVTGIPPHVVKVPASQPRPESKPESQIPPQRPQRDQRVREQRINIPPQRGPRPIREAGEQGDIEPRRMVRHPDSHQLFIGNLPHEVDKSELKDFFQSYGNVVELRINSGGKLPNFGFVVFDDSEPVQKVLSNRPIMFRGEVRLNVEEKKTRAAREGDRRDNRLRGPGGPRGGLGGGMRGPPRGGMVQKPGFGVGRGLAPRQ
Constant ends, left off below: GGGAGUUCUACAGUCCGACGAUC … UGGAAUUCUCGGGUGUCAAGG
Oligonucleotide = GUCCUGUGCUACACAUCGUAUGUACCGAAUCGGGGAAAAAGGAAAAAGGGGAAAAAGGAAAGUAUUAUGUUACGCCGUUCGGAUCUGCAC; value = -1.21
Oligonucleotide = UCCUGUGCUACACAUCGUAUGUACCGAAUCGGUUUUUUUGGUUUUUUUGGUUUUUUUGGGAAAGUAUUAUGUUACGCCGUUCGGAUCUGC; value = -0.628
Oligonucleotide = CUCAAGUCCUGUGCUACACAUCGUAUGUACCGAAUCGGGGAGGGGAGGAGGGGAAAGUAUUAUGUUACGCCGUUCGGAUCUGCACUUCCA; value = 1.01
Oligonucleotide = AGUCCUGUGCUACACAUCGUAUGUACCGAAUCGGGAAAAAGGGAAAAAGGGUUUGGGAAAGUAUUAUGUUACGCCGUUCGGAUCUGCACU; value = 0.446
Oligonucleotide = CAAGUCCUGUGCUACACAUCGUAUGUACCGAAUCGGGGAAGGGGAAGGGGAAGGGAAAGUAUUAUGUUACGCCGUUCGGAUCUGCACUUC; value = 2.57
Oligonucleotide = ACCAUGCAGGUGGGCAUCUUUGGGAAGUGGGGCAAGGAGGGGAUAGGGAGGGGGGUAACACUUUGGGAACAGGUGGUCCCAGGUCGUUUC; value = -0.92
Oligonucleotide = CUGUGCUACACAUCGUAUGUACCGAAUCGGGAAAAAAAGGGGAAAAAAAGGGAAAAAAAGGAAAGUAUUAUGUUACGCCGUUCGGAUCUG; value = -1.36
Oligonucleotide = GCAAGAAGUAAAAACAAAUGGAAAUGCUUCGGAUAGUGGCAGGGGUGGGGGUUGCUAAGGAAAGGGUGGGAUGGGAGUGGGUAAAGAGUU; value = 1.15
Oligonucleotide = UGGCCCUGGUGGCAUGCGGGGAGGAAGAGGUGGCCUCAUAGAUCGUGGUGGUCCCGGUGGAAUGUUCAGAGGUGGCCGUGGUGGAGACAG; value = 2.29
Oligonucleotide = UGGGGAGACUACGAUGACAGCGCCUUCAUGGAGCCCAGGUACCACGUCCGUGGAGAAGAUCUGGACAAGCUCCACAGAGCUGCCUGGUGG; value = -1.64
Oligonucleotide = UGGCCCUGGUGGCAUGCGGGGAGGAAGAGGUGGCCUCAUGGAUCGUGGUGGUCCCGGUGGAAUGUUCAGAGGUGGCCGUGGUAGAGACAG; value = 4.12
Oligonucleotide = CACAGACAACACGCACCCACACAGACACAGAGGGAAGGGGUUGGGAUGGGGACAGGGUGCACAGCAGGGCGGGGUAGGACCCCAUCCCCU; value = -1.16
Oligonucleotide = GCAGGAAGUAAAAACAAAUGGAAAUGCUUCGGAGAGUGGCAGGGGUGGGGGUUGCUAAGGAAAGGGUGGGAUGGGAGUGGGUAAAGAGUU; value = 1.23
Oligonucleotide = CACAGACAACACGCACCCACACAGACACAGAGGGAAGGGGUUGGGAUGGGGACAGGGGGCACAGCAGGGCGGGGUAGGACCCCAGCCCCU; value = -0.509

Sample 2 — technique: protein-binding microarray; form: double-stranded DNA, one strand shown; matrix: in vitro; concentration: 250 nM; setting: 60-bp whole probe; added: salmon DNA 0.4 mg/ml; baseline: random background probes; reading: higher = stronger binding; endpoint: log fluorescence; constant ends, left off below: GCCTAGCAC … GTCTTGATTCGCTTGACGCTGCTG
Target: Interferon regulatory factor 5, full length, phosphomimetic (IRF5, Homo sapiens, UniProt Q13568-2, residues 1-514, K96S/S451D/S453D/S456D/S462D)
Oligonucleotide = TTAGGAATCGGACTGGGTTAGTGCTAG; value = 0.0328 z-score
Oligonucleotide = GACGGTATTCTACTGCTGACGTGCTAG; value = 0.0929 z-score
Oligonucleotide = TTAGGTTTCCTTATCCTTTCGTGCTAG; value = 1.59 z-score
Oligonucleotide = AGTGGCCCAGGGCATCCCCTGTGCTAG; value = -0.594 z-score
Oligonucleotide = TTAGATTCCACTTTCGATTAGTGCTAG; value = 10.5 z-score
Oligonucleotide = GACGGTTTAGGGTTTCGGGACGTGCTA; value = 1.78 z-score
Oligonucleotide = AACGGACTGCTACTGCTGACGTGCTAG; value = -0.27 z-score
Oligonucleotide = GGCGATTTCGGGACTGGAGACGTGCTA; value = 1.84 z-score
Oligonucleotide = TCATATTTATTTTTACAACTGTGCTAG; value = 1.05 z-score
Oligonucleotide = AACGATCTCAGTCTCGAGACGTGCTAG; value = 0.174 z-score
Oligonucleotide = TCAATTTTGTTTTTCATACTGTGCTAG; value = 1.82 z-score
Oligonucleotide = TTAGGACTGGGGACTTGGTTAGTGCTA; value = -0.413 z-score

Sample 3 — technique: protein binding microarray; form: double-stranded DNA, one strand shown; matrix: in vitro; concentration: not given; baseline: not given; reading: higher = stronger binding; endpoint: E-score
Target: Histone acetyltransferase KAT6A, both winged helices, GST fusion (KAT6A, Homo sapiens, UniProt Q92794, residues 1-181)
Setting: 8-mer, flanks averaged, mean of 2 arrays, mostly near background
Target sequence (chain): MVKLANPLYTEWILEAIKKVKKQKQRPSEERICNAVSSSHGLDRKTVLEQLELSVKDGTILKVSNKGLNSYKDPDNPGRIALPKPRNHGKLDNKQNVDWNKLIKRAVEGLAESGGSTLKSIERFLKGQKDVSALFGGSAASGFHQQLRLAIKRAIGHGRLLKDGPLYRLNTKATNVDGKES
Oligonucleotide = GGTTACAC; value = -0.0165
Oligonucleotide = CACGTTCG; value = 0.145
Oligonucleotide = AGTGTCCA; value = -0.13
Oligonucleotide = ATTAATAA; value = -0.00324
Oligonucleotide = CATAAGTC; value = -0.0893
Oligonucleotide = GAATCTCC; value = -0.0247
Oligonucleotide = TCGTCGCA; value = 0.102
Oligonucleotide = ACGTGGTC; value = -0.181
Oligonucleotide = AATATAAA; value = -0.0298
Oligonucleotide = AGCACAAG; value = -0.23
Oligonucleotide = ACTGGTGC; value = 0.0588
Oligonucleotide = ACCACTGG; value = -0.0935
Oligonucleotide = GCTGGGTA; value = -0.099
Oligonucleotide = AATGTTAC; value = 0.107
Oligonucleotide = CCGCCGGA; value = 0.314
Oligonucleotide = CATCGTTA; value = -0.115
Oligonucleotide = GGACGCTA; value = 0.186
Oligonucleotide = AAGTTATG; value = -0.157

Other studies, line by line
Molecule = GSALKKLFTSTGL; tested on = Saccharomyces cerevisiae; test = peptide binding, yeast competitive growth sequencing; system = peptide, cyclin F-Cln2 fusion; conditions = library 1; scale = direction not given; endpoint = enrichment score; value = -0.342
Molecule = PhoQ, residues 284 288 289 292 302 303 GTAMQF; tested on = PhoP, residues 12 14 15 18 19 SYFRT (Escherichia coli, UniProt P23836); test = Sort-seq, refers to: YFP reporter; system = E. coli; conditions = PhoQ-PhoP variant library, added: 10 µM Mg2+; scale = baseline: high Mg2+ state, higher = stronger signaling; endpoint = fold induction; value = 5.13
Molecule = LQVDDDSGDPLNLVKA; tested on = human cyclin D1-Cln2 fusion; test = yeast growth, competitive growth deep sequencing; system = peptide, Saccharomyces cerevisiae; conditions = peptide tiling library; scale = direction not given; endpoint = enrichment score; value = 1.62
Molecule = HRRRLLFACSPPPASQ; tested on = Saccharomyces cerevisiae; test = binding, competitive growth deep sequencing; system = peptide, cyclin E1-Cln2 fusion strain; conditions = peptide tiling library; scale = direction not given; endpoint = enrichment score; value = -0.651

A few entries again (sample 3):
Oligonucleotide = GAATCTCC; value = -0.0247
Oligonucleotide = GGTTACAC; value = -0.0165
Oligonucleotide = CCGCCGGA; value = 0.314
Oligonucleotide = AGTGTCCA; value = -0.13
Oligonucleotide = AGCACAAG; value = -0.23
Oligonucleotide = TCGTCGCA; value = 0.102
Oligonucleotide = CACGTTCG; value = 0.145
